Experimental data collected from several papers.
Lines come from different studies, so protocols differ. ± gives the spread as reported.

SMILES | assay | system | conditions | how to read | endpoint | value
CCCCN1CCC(COC(=O)c2ccc(N)c(O[11CH3])c2)CC1 |  | n-octanol/phosphate buffer | pH 7.4, room temperature, 0.15 M sodium phosphate |  | logD7.4 | 1.77 ± 0.01
Cn1c(-c2ccc(C(N)=O)cc2F)nnc1C(C)(C)Oc1c(F)cc(Cl)cc1F |  | human | oral, 60 mg, single ascending dose |  | nervous system disorder TEAE | 0%
CN(C)C(=O)c1cc2cnc(Nc3ccc(N4CCNCC4)cn3)nc2n1C1CCCC1 | measured: respiratory failure | HR+/HER2− advanced breast cancer patients | oral, dose not given, not drug-related |  | serious adverse event incidence | 0.3%
CCc1cc(C(=O)NC)c2nccc(N3CCc4c(cc(Cn5ccnc5)cc4-c4cn(C)nc4C(F)(F)F)C3=O)c2c1 |  | Sprague Dawley rats, male, bile duct-cannulated, urine | oral, 50 mg/kg, 0--24 h |  | amount excreted | 43000 ± 22000 ng
C[C@@H]1NC(=O)[C@H](CCCCNC(=O)CO/N=C/C(=O)NCCCC[C@@H]2NC(=O)[C@@H](Cc3ccccc3)NC(=O)[C@H](CC(=O)O)NC(=O)CNC(=O)[C@H](CCCNC(=N)N)NC2=O)NC(=O)CNC(=O)[C@@H]2CCCN2C(=O)[C@H](CCCCNC(=O)CO/N=C/C(=O)NCCCC[C@@H]2NC(=O)[C@@H](Cc3ccccc3)NC(=O)[C@H](CC(=O)O)NC(=O)CNC(=O)[C@H](CCCNC(=N)N)NC2=O)NC(=O)[C@H](CCCCNC(=O)CCNC(=O)CCNC(=O)CCNC(=O)[C@H](CCCCN)NC(=O)[C@H](Cc2ccccc2)NC(=O)CNC(=O)CN2CCCNCCNCCCNCC2)NC(=O)[C@H](CCCCNC(=O)CO/N=C/C(=O)NCCCC[C@@H]2NC(=O)[C@@H](Cc3ccccc3)NC(=O)[C@H](CC(=O)O)NC(=O)CNC(=O)[C@H](CCCNC(=N)N)NC2=O)NC(=O)CNC(=O)[C@@H]2CCCN2C(=O)[C@H](CCCCNC(=O)CO/N=C/C(=O)NCCCC[C@@H]2NC(=O)[C@@H](Cc3ccccc3)NC(=O)[C@H](CC(=O)O)NC(=O)CNC(=O)[C@H](CCCNC(=N)N)NC2=O)NC1=O [copper-64 labelled] |  | normal mice, muscle | intravenous, 0.74 MBq, 24 h post-injection |  | tissue uptake | 0.26 ± 0.01 %ID/g
C=CC(=O)N1CC[C@H](n2nc(C#Cc3cc(OC)cc(OC)c3)c3c(N)ncnc32)C1 | measured: abdominal discomfort | healthy adults | oral, grade ≥3, pooled treatments |  | TEAE incidence | 0%
COc1cc2c(Oc3ccc4[nH]c(C)cc4c3F)ccnc2cc1OCC1(N)CC1 |  | paediatric recurrent refractory sarcoma | 8 mg/kg |  | grade 3 Myalgia | 0%
CCc1ccc(CC/C=C/c2ccc3c(c2)C(=O)CC3)cc1 |  | Sprague-Dawley rat, female, blood | oral, 120 mg/kg/day, 14 days |  | platelet distribution width | 49.4%
O.O.O.O.O.O.[Cl-].[Cl-].[Co+2] |  | rat female, faeces | oral, 10 mg/kg single, day 3 | reference: vehicle control subtracted | cobalt in faeces | 0.35 µg/g
COc1ccc2c(c[n+](C)c3c4cc5c(cc4ccc23)OCO5)c1OC | LC-MS/MS | rat, plasma | dose not given |  | MRT(0-inf) | 4.38 h
COc1ccc([C@@H]2CC(=O)c3c(O)cc(O)cc3O2)cc1O |  | male Sprague-Dawley rats, lean, faeces | oral, 100 mg/kg of neohesperidin, 48 h |  | cumulative faecal excretion | 3470 ± 1020 ng
c1ccc2[nH]ccc2c1 |  |  | pH 7.4 |  | logD (chromatographic) | 4.14
CN1CC[C@@H](c2c(O)cc(O)c3c(=O)cc(-c4ccc(C(F)(F)F)cc4Cl)oc23)[C@@H]1CO | measured: Epistaxis | B-cell malignancies | oral, 200 mg, intermittent dosing |  | patients with adverse event | 0%

Some of these lines once more:
SMILES | assay | system | conditions | how to read | endpoint | value
COc1ccc([C@@H]2CC(=O)c3c(O)cc(O)cc3O2)cc1O |  | male Sprague-Dawley rats, lean, faeces | oral, 100 mg/kg of neohesperidin, 48 h |  | cumulative faecal excretion | 3470 ± 1020 ng
COc1cc2c(Oc3ccc4[nH]c(C)cc4c3F)ccnc2cc1OCC1(N)CC1 |  | paediatric recurrent refractory sarcoma | 8 mg/kg |  | grade 3 Myalgia | 0%
